# Measured values from different studies.
# A part holds a random share of what one study measured.

# Set 1
# Target: Histone acetyltransferase KAT6A, winged helix 1, GST fusion (KAT6A, Homo sapiens, UniProt Q92794, residues 1-85)
# Technique: protein binding microarray
# Molecule type: double-stranded DNA, one strand shown
# Matrix: in vitro
# Tested at: not given
# Notes: 8-mer, flanks averaged, mean of 2 arrays, mostly near background
# Relative to: not given
# Reading: higher = stronger binding
# Construct (chain): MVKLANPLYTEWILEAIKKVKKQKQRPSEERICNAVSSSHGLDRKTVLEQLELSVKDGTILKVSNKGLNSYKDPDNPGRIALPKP
Strand,E-score
CAGCTTAG,-0.0948
AGAGACCA,-0.151
AATGCTTG,-0.0773
GTCATCGA,-0.0602
CCCAGCCG,0.0697
CATCTCAA,-0.213
AACATCGC,0.194
GCGCGAGA,0.268
AGGTTGCC,0.127
ACGACCGA,-0.0985
CCGCCGTC,0.437
AACTCGCC,0.0661
ATATGCAT,-0.0686
GAAGCCAA,-0.0794
CGGATAAC,0.122
GTTGTGTA,-0.0857
CGCTGACA,0.0806
GCTCCTCA,-0.00539
ATTGAGGC,-0.0775
CACCAAGC,0.0103
CCTTCATC,-0.177
ATTACAAG,-0.126
GAGACTGA,-0.168
CGTTTGGA,-0.0849

# Set 2
# Target: RNA binding protein fox-1 homolog 2, RRM domain, GST-SBP tag (RBFOX2, Homo sapiens, UniProt O43251-10, residues 100-194)
# Technique: RNA Bind-n-Seq
# Molecule type: RNA
# Matrix: in vitro
# Tested at: 365 nM
# Notes: natural RNA segment, single round, ends assumed
# Relative to: no-protein control
# Reading: higher = stronger binding
# Target sequence (chain): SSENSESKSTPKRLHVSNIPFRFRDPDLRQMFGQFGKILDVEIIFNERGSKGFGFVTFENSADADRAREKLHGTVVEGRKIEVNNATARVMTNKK
Strand,RBNS enrichment (R)
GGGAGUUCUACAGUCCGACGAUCAGAAUGUAACUGUUGAUGUGAGCAGCAGAAAUCUGCUUAUAGAUAACAUACUGUUAAUAUUUAAUUAAAAGCAUUGUUUUUUCUAGAGCUGAGAAAUAGAAGCUAAAGAAUGGAAUUCUCGGGUGCCAA,0.522
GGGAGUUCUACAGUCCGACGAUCGAUGCUUCUACUGUUAUGUUUUAUCUGCCCAUUUAUCUUUCUUAGUUACCAGGAGAAAUGUGUGACACCUAUAUUAUAAUGAAAACAAUCUCAUUACUUAUAGUUUAUCUUGGAAUUCUCGGGUGCCAA,1.06
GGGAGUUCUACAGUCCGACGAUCAGGUCAGUUCUAUGUGGUGUGGCAGUUACAUAGGAUGAGUACAUUUUCAGAGCAGCUAGAUGUCUGCAUGUGUGCAUAUAUGCAUGCCCACUCCUUUCAUAUACGUUUGUUGGAAUUCUCGGGUGCCAA,2.16
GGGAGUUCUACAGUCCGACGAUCACAGGCUUGCCUGGCCCCAGGGACACUACUGCUACUGUAGCUGUGGCAGGGACCAACCAGGCUGCCUGUGCCCGUCUGCUGCCUCCGAGACACCAGAGGUCUGCUGCAGAUGGAAUUCUCGGGUGCCAA,0.166
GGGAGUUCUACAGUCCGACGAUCGGCUCCUUCAGCAGCUAGAGCUCAGUAUACUAAUGCCCUAUCUUAGUAGAGAUUUCAUAGCUAUUUAGAGAUAUUUUCCAUUUUAAGAAAACCCGACAACAUUUCUGCCAUGGAAUUCUCGGGUGCCAA,0.731
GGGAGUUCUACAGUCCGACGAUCGCCUUGAUCUCUCCAUGCCCCACCUUAAGUGGUAAGCAUGUUUAAUUAUCAAAGGCCCCAUUUGUCAGGGGUGAGAGAAAAGUCAAAAGAUAAAUUGGGGCCUUGUAAAAUGGAAUUCUCGGGUGCCAA,0.619
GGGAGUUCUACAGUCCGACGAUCACCCCCCACCAAUGUCUUAAUCCCACAUUUUCUUCACAACUUUUAGCAUCAGCUCAGACCGUGGGGUUCCACUGGGUAUUGGGAAUUAGGCUCCCCCACUAGCUUUCAGGUGGAAUUCUCGGGUGCCAA,0.627
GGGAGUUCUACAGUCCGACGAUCCAAGCACCCUAUCUUGUGUCCCUCACAAACAAGCUCUUGUCACUUCUUACCGAGUCCAUAGCUUCAUGCCCCUCUCGUGACUUACUGAGGGUCCAGAUGGCUGUCAGGAAUGGAAUUCUCGGGUGCCAA,0.346

# Set 3
# Target: RING finger protein unkempt homolog, zinc fingers 1-6, GST-SBP tag (UNK, Homo sapiens, UniProt Q9C0B0, residues 30-357)
# Chain of UniProt Q9C0B0 (30-357, looked up): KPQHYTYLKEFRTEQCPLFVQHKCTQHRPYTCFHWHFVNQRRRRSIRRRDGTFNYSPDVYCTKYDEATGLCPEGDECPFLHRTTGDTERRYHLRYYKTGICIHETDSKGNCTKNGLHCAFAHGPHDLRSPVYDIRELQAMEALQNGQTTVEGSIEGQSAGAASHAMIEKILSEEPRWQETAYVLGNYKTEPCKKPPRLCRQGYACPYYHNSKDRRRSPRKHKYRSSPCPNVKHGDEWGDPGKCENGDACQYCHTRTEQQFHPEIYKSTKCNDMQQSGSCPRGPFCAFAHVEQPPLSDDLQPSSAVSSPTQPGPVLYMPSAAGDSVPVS
# Technique: RNA Bind-n-Seq
# Molecule type: RNA
# Matrix: in vitro
# Tested at: not given
# Notes: RNA with constant flanks, human-mouse chimeric sites, ends assumed
# Relative to: input RNA pool
# Reading: higher = stronger binding
Strand,bound/input enrichment [ratio]
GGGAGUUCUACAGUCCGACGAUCGGUGGGGUGGUCAUUGCCGUUUGAGCUGCUGAUUUUCAUGAGUCGCCUUCAAAACUCUCGUGUAGGGUUGACAAUGUAAGGGGUGGGGGGAUCCAGCUUAUUCUUUUUCCCCAGCCCCCACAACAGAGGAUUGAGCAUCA,0.766
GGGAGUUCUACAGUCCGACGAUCGUGUCCUGCUUUCAACUUAAAUCACUGAGGCAUCUCUACUGUUCUGUGAGCAUCAGGACUGUAGCGCUUGCCACCACCAUGAGAGUUCAGAAGCAGCCUUUCUGUGGAGGGUGGGAAUGACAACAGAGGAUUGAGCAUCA,0.12
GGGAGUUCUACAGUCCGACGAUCAAAGAACUUGCUGAUGAUGAAGAUGAGGAAGACAAUGAUGAUGUUGAACCCAUUUCUGAAUUUCGAUUUGUGCCCAGUGAUAAGUCAGCAUUGGAGGCGAUGUUCACUGCAAUGUGCGAGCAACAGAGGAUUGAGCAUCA,0.243
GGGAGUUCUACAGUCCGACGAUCGUGACUGGUGUUAAGAUUUCCCCUCAGCAAAGAAGUGUAGCAGUGACCAUAAUUCCAUCUGUGGUGAGUGCCAGUCAGAUUGUGGAGCUGGUUCCAGACCUCAGUUUAGACAUGGGAACUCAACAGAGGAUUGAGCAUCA,0.342
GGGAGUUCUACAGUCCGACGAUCGAUCAUGAACCACCAUCAGAAAUGAAGAUGAGAUUACCCAGACGAGCCAAAACAGCUAGCACUAGAAAAAGUAAACUUUAACCUUGCGAGUUCCUUAAUGAAGAUACAAGUUAAGAGAGCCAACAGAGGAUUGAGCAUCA,3.19
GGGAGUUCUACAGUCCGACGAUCGAUCAUGAACCACCAUCAGAAAUGAAGGAUGAGACUACCAGACGAGCCAAAACAGCUGCGCUACAGAAAAGUAAACUUAACCUUGCACCAAUUUCUCAUGAAGAUACAAGUUAAGAGAGCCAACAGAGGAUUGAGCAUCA,0.302
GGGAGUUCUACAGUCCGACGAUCAAUGUUCUUAAUAUUUUUGAAUAAAUGAAGCUAAAAUGUCUGCUUUUGGUACAACACGCAUUAAUAAAAGGUUAAGUUUUGUUUUCCACUGAAGUACUAUUUAACAUACAUCUCAGAAACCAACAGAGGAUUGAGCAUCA,0.226
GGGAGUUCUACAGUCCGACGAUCGGGACUGAUUCAUCCCAAGGACAGGCCGCCCAGUCUGAUGCCUGGACUGAUGACAGUAUGGAAGGGCCUAGUCAAAAUGUUGAAGCUGAGUCAAUUCAAGAUAAUGCGAGUAUGGAAGAGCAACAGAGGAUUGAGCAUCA,0.299

# Set 4
# Target: Interferon regulatory factor 5, full length, phosphomimetic (IRF5, Homo sapiens, UniProt Q13568-2, residues 1-514, S451D/S453D/S456D/S462D)
# Technique: protein-binding microarray
# Molecule type: double-stranded DNA, one strand shown
# Matrix: in vitro
# Tested at: 940 nM top
# Notes: 60-bp whole probe
# With: salmon DNA 0.4 mg/ml
# Relative to: random background probes
# Reading: higher = stronger binding
# Constant ends, left off below: GCCTAGCAC … GTCTTGATTCGCTTGACGCTGCTG
Strand,fitted relative affinity
TTAGGTATCGGGTTGCGGTTAGTGCTA,6.42 z-score
TCATTTTCCCCCCTCACACTGTGCTAG,1.09 z-score
TTAGGTTTCGGTTTCGGTGAGTGCTAG,15.9 z-score
TTAGAACTGGGGACTGGATTTGTGCTA,-0.139 z-score
GACGGACTGGCCTATCGGGACGTGCTA,-0.513 z-score
AGGGAGGTCTCTCCCGACCTGTGCTAG,1.48 z-score
TTAGAACTGAGTCTCGATGAGTGCTAG,1.41 z-score
TTAGGTTTCCTTCTCCTATAGTGCTAG,2.45 z-score
TTAGAATCCAGTTTCGATTAGTGCTAG,9.03 z-score
GACGATATCAGACTGCAGACGTGCTAG,-0.531 z-score
TTTTATATCTTATCCTATCAGTGCTAG,1.04 z-score
TCAAACATCATTTTTCCACTGTGCTAG,0.533 z-score
GACGGACTGGGGTTTCGGGATGTGCTA,2.08 z-score
TTTTTTTTCTACTTCTGTTTGTGCTAG,1.75 z-score
TTAGATATCAGTCTCGATTCGTGCTAG,2.71 z-score
TTAGGTATCGCTTTCGGTTAGTGCTAG,7.07 z-score
TTAGATATCGGGTATCGATTAGTGCTA,2.91 z-score
CTAGTTTTACTTTCTATCTCGTGCTAG,2.58 z-score
GACGGTTTCCGTATCGGGACGTGCTAG,2.44 z-score

# Excerpt of the above (set 2):
Strand,RBNS enrichment (R)
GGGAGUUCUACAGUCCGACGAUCAGAAUGUAACUGUUGAUGUGAGCAGCAGAAAUCUGCUUAUAGAUAACAUACUGUUAAUAUUUAAUUAAAAGCAUUGUUUUUUCUAGAGCUGAGAAAUAGAAGCUAAAGAAUGGAAUUCUCGGGUGCCAA,0.522
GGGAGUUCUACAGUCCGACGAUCGAUGCUUCUACUGUUAUGUUUUAUCUGCCCAUUUAUCUUUCUUAGUUACCAGGAGAAAUGUGUGACACCUAUAUUAUAAUGAAAACAAUCUCAUUACUUAUAGUUUAUCUUGGAAUUCUCGGGUGCCAA,1.06
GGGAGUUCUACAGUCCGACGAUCAGGUCAGUUCUAUGUGGUGUGGCAGUUACAUAGGAUGAGUACAUUUUCAGAGCAGCUAGAUGUCUGCAUGUGUGCAUAUAUGCAUGCCCACUCCUUUCAUAUACGUUUGUUGGAAUUCUCGGGUGCCAA,2.16
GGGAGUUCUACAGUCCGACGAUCACAGGCUUGCCUGGCCCCAGGGACACUACUGCUACUGUAGCUGUGGCAGGGACCAACCAGGCUGCCUGUGCCCGUCUGCUGCCUCCGAGACACCAGAGGUCUGCUGCAGAUGGAAUUCUCGGGUGCCAA,0.166
